Measurements gathered from unrelated publications.
A part holds a random share of what one study measured. Changes are numbered by the printed parent chain.

Sample 1 — target: UBE2E1 UBC core domain (UniProt P51965); technique: yeast two-hybrid; medium: yeast; setting: mostly zero background; baseline: not given; direction: higher = stronger interaction
UniProt P51965, sequence (whole entry, looked up): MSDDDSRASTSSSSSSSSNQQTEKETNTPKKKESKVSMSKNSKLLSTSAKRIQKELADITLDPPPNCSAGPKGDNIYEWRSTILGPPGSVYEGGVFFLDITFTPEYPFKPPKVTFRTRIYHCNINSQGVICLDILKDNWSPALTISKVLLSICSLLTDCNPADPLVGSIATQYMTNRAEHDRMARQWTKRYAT
B1: RNF152 RING domain (UniProt Q8N8N0); chain ETLSQDSLLECQICFNYYSPRRRPKLLDCKHTCCSVCLQQMRTSQKDVRCPWCRGVTKLPPGFS
B2: RNF187 RING domain (UniProt Q5TA31); chain ALPAGPAEAACALCQRAPREPVRADCGHRFCRACVVRFWAEEDGPFPCPECADDCWQRAVEP
B3: MKRN2 RING domain (UniProt Q9H000); chain FAFQASQDKVCSICMEVILEKASASERRFGILSNCNHTYCLSCIRQWRCAKQFENPIIKSCPECRVISEFVIPSV
B4: ANAPC11 RING domain (UniProt Q9NYG5); chain GICRMAFNGCCPDCKVPGDDCPLVWGQCSHCFHMHCILKWLHAQQVQQHCPMCRQEWKFKE
B5: TRIM60 RING domain (UniProt Q495X7); chain ALVNLQEESSCPICLEYLKDPVTINCGHNFCRSCLSVSWKDLDDTFPCPVCRFCFPYKSFRR
B6: MEX3B RING domain (UniProt Q6ZN04); chain SGLRRKGSRDCSVCFESEVIAALVPCGHNLFCMECANRICEKSEPECPVCHTAVTQAIRIF
B7: TRIM26 RING domain (UniProt Q12899); chain PLRSLEEEVTCSICLDYLRDPVTIDCGHVFCRSCTTDVRPISGSRPVCPLCKKPFKKENIRP
For `B1 (RNF152 RING domain)`, “lacZ reporter activity” read 2360.
Under “lacZ reporter activity”, `B2 (RNF187 RING domain)` is recorded as 0.
`B3 (MKRN2 RING domain)`: “lacZ reporter activity” 0.
`B4 (ANAPC11 RING domain)`: “lacZ reporter activity” 0.
`FVKTVEDKYKCEKCHLVLCSPKQTECGHRFCESCMAALLSSSSPKCTACQESIVKDKVF (TRAF3 RING domain (UniProt Q13114))` — result for “lacZ reporter activity”: 0.
`RYRQMEERITCPICIDSHIRLVFQCGHGACAPCGSALSACPICRQPIRDRIQIF (MIB2 RING domain (UniProt Q96AX9))` — result for “lacZ reporter activity”: 0.
Under “lacZ reporter activity”, `LDAASGHPLVCPLCHGQYERPCLLDCFHDFCTGCLRGRATDGRLSCPLCQHQTLVKGPSG (Rnf207 RING domain (UniProt Q3V3A7))` is recorded as 0.
For `B5 (TRIM60 RING domain)`, “lacZ reporter activity” read 0.
`B6 (MEX3B RING domain)` — result for “lacZ reporter activity”: 0.
For `B7 (TRIM26 RING domain)`, “lacZ reporter activity” read 0.

Sample 2 — target: CCNA2, cyclin fold, Cln2 fusion (human); technique: yeast growth competition, sequencing; medium: yeast; setting: strong parent motif; baseline: not given; direction: higher = stronger binding
Parent: INSM1 docking peptide (human); PKAIRKLHFEDEV
`E10G` — result for “normalised enrichment score”: 5.55.
`A3V`: “normalised enrichment score” 5.53.
`F9R` — result for “normalised enrichment score”: -0.11.
`K6Q`: “normalised enrichment score” 5.17.
`K2R`: “normalised enrichment score” 5.34.
Under “normalised enrichment score”, `K2I` is recorded as 3.5.
`F9C`: “normalised enrichment score” 0.0353.
`D11L` — result for “normalised enrichment score”: 4.6.
`D11N` — result for “normalised enrichment score”: 5.32.
Under “normalised enrichment score”, `D11S` is recorded as 4.84.
For `D11C`, “normalised enrichment score” read 5.22.
`E10W` — result for “normalised enrichment score”: 4.32.
`R5W` — result for “normalised enrichment score”: 0.655.
Under “normalised enrichment score”, `E10P` is recorded as 5.35.
Under “normalised enrichment score”, `D11V` is recorded as 4.54.
For `E12P`, “normalised enrichment score” read 5.15.
Under “normalised enrichment score”, `E12W` is recorded as 4.48.
For `H8F`, “normalised enrichment score” read 4.83.
`R5D`: “normalised enrichment score” 0.191.
Under “normalised enrichment score”, `F9V` is recorded as 0.458.
`L7T`: “normalised enrichment score” 0.22.
`A3G`: “normalised enrichment score” 2.73.
`R5M`: “normalised enrichment score” 1.97.
`E12G` — result for “normalised enrichment score”: 4.94.
`L7H` — result for “normalised enrichment score”: -0.141.

Sample 3 — technique: DHFR PCA, deep sequencing; medium: yeast; with: (+)-ABA 1.4 µM; baseline: wild-type fitted maximum; direction: higher = stronger binding
Target: ABI1, truncated, D143A, DHFR fusion (Arabidopsis thaliana)
Setting: methotrexate growth selection, single substitutions
Parent: PYL1, truncated, DHFR fusion (Arabidopsis thaliana); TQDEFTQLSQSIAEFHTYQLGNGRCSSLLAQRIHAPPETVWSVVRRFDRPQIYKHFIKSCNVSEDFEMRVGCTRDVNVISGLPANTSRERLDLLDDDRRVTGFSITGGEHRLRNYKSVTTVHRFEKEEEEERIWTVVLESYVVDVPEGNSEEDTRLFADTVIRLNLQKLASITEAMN; partner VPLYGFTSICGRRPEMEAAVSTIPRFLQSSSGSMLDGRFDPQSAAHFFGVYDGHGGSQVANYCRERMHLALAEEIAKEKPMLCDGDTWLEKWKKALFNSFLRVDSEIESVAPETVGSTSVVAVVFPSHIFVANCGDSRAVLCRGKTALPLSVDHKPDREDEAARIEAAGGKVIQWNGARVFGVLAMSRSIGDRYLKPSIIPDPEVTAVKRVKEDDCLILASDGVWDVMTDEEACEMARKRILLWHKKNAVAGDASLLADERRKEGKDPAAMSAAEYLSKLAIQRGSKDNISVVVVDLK
`E151N`: “relative binding score” 10.8%.
`L156R` — result for “relative binding score”: 12.1%.
Under “relative binding score”, `N85E` is recorded as 68.8%.
`T135R`: “relative binding score” -1.89%.
Under “relative binding score”, `L156A` is recorded as 52.5%.
Under “relative binding score”, `F103D` is recorded as 1.48%.
For `V62G`, “relative binding score” read -2.95%.
Under “relative binding score”, `S104P` is recorded as -4.21%.
Under “relative binding score”, `T73D` is recorded as 2.28%.
For `E4W`, “relative binding score” read 57.3%.
For `H110C`, “relative binding score” read 10.4%.
Under “relative binding score”, `F15R` is recorded as -3.34%.
Under “relative binding score”, `V100Q` is recorded as -2.5%.
For `F124Y`, “relative binding score” read 55.3%.
Under “relative binding score”, `G148M` is recorded as -23.1%.

Sample 4 — target: NFE2L2, bZIP domain (human); technique: DHFR protein complementation; medium: yeast; baseline: wild-type JUN-FOS pair; direction: higher = stronger binding
Setting: single substitutions, most at no-binding floor
Parent: JUN, bZIP domain (human); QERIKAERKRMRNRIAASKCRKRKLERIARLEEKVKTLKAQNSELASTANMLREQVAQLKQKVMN; partner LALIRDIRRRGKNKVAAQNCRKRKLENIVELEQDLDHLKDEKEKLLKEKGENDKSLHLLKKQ
The binding fitness of `S43H` is reported as -1.52 natural log.
`V35H` has a binding fitness of -1.21 natural log.
`V35A` gave a binding fitness of -1.27 natural log.
The binding fitness of `E32C` is reported as -1.49 natural log.
`I28Q` has a binding fitness of -1.47 natural log.
The binding fitness of `A40M` is reported as -1.48 natural log.
`N42H` has a binding fitness of -1.5 natural log.
With `K36P` the binding fitness was -1.5 natural log.
The binding fitness of `R53W` is reported as -1.51 natural log.
For `Q55G`, the binding fitness was -1.48 natural log.
`A29I` gave a binding fitness of -1.17 natural log.
`E33L` has a binding fitness of -1.35 natural log.
`R53H` has a binding fitness of -1.52 natural log.
The binding fitness of `Q41R` is reported as -1.52 natural log.
The binding fitness of `T37V` is reported as -1.55 natural log.
The binding fitness of `L45Y` is reported as -1.49 natural log.
The binding fitness of `A46T` is reported as -1.2 natural log.
`K34R` gave a binding fitness of -1.28 natural log.
`R53M` gave a binding fitness of -1.47 natural log.
`A57S` gave a binding fitness of -1.25 natural log.
`A40E` gave a binding fitness of -1.22 natural log.
For `L52R`, the binding fitness was -1.53 natural log.
For `A40P`, the binding fitness was -1.47 natural log.
For `R53I`, the binding fitness was -1.57 natural log.

A few entries again (sample 4):
The binding fitness of `R53W` is reported as -1.51 natural log.
For `Q55G`, the binding fitness was -1.48 natural log.
`A29I` gave a binding fitness of -1.17 natural log.
`E33L` has a binding fitness of -1.35 natural log.
`R53H` has a binding fitness of -1.52 natural log.
The binding fitness of `Q41R` is reported as -1.52 natural log.
The binding fitness of `T37V` is reported as -1.55 natural log.
The binding fitness of `L45Y` is reported as -1.49 natural log.
